# Assay results of several laboratories.
# Each numbered part is a random draw from the data of one study; scales do not carry over between parts. Several values in a cell are separate wells, animals, samples, runs or records.
# Sequence of UniProt Q92772 (whole entry, looked up): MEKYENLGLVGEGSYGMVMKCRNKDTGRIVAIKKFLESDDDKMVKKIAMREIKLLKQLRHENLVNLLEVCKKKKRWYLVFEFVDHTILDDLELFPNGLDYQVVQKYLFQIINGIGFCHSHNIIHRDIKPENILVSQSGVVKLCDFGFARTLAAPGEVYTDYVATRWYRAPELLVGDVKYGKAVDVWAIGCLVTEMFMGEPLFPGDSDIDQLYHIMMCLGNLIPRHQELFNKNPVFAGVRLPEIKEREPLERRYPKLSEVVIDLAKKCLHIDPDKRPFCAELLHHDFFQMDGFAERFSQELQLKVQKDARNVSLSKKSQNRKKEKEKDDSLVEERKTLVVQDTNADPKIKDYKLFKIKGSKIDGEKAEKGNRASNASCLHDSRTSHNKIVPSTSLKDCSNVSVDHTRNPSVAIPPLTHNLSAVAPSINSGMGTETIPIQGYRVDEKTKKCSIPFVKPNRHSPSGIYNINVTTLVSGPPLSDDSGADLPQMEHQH
# Sequence of UniProt Q13131 (whole entry, looked up): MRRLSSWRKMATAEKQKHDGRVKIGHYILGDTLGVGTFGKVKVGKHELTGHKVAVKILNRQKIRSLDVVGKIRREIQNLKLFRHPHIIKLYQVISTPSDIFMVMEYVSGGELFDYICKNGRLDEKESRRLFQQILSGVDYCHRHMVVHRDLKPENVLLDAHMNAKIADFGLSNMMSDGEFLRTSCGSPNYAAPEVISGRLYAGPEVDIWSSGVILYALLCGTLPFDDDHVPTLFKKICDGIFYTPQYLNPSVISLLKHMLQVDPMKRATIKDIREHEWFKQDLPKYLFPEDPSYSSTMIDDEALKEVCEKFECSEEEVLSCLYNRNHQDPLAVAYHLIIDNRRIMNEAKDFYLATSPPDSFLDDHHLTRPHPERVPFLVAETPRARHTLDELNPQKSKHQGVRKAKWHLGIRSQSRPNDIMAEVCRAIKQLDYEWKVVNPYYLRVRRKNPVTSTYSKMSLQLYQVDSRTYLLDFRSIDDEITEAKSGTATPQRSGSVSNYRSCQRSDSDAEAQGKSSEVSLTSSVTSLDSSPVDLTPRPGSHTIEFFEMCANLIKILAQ
# Sequence of UniProt P42336 (whole entry, unmodified, looked up): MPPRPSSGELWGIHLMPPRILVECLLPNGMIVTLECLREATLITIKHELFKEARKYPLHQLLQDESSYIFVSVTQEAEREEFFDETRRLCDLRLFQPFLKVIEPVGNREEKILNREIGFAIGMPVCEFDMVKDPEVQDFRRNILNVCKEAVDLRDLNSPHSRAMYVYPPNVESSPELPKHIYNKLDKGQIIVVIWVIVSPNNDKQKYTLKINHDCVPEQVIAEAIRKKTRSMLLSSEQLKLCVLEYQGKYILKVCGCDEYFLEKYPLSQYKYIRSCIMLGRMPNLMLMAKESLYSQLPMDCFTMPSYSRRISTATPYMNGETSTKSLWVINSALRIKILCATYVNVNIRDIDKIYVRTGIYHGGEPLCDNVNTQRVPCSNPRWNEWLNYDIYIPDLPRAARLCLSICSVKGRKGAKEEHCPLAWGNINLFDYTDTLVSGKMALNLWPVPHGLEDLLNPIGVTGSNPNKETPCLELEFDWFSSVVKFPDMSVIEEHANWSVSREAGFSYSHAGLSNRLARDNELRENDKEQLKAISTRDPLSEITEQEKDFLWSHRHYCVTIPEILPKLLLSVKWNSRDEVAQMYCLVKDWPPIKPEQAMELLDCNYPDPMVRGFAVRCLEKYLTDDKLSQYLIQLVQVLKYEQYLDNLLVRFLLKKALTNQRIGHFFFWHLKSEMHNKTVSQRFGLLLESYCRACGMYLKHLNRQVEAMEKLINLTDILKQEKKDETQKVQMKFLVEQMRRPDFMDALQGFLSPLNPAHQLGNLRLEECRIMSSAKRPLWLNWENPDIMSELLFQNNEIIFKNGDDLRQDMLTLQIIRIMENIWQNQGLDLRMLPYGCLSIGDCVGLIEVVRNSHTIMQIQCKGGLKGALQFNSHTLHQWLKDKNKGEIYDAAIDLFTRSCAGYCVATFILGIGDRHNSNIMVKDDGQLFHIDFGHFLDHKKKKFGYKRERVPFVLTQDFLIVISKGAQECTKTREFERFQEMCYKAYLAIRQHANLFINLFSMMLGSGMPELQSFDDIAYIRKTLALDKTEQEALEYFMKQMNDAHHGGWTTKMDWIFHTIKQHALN
# Sequence of UniProt Q6DT37 (whole entry, looked up): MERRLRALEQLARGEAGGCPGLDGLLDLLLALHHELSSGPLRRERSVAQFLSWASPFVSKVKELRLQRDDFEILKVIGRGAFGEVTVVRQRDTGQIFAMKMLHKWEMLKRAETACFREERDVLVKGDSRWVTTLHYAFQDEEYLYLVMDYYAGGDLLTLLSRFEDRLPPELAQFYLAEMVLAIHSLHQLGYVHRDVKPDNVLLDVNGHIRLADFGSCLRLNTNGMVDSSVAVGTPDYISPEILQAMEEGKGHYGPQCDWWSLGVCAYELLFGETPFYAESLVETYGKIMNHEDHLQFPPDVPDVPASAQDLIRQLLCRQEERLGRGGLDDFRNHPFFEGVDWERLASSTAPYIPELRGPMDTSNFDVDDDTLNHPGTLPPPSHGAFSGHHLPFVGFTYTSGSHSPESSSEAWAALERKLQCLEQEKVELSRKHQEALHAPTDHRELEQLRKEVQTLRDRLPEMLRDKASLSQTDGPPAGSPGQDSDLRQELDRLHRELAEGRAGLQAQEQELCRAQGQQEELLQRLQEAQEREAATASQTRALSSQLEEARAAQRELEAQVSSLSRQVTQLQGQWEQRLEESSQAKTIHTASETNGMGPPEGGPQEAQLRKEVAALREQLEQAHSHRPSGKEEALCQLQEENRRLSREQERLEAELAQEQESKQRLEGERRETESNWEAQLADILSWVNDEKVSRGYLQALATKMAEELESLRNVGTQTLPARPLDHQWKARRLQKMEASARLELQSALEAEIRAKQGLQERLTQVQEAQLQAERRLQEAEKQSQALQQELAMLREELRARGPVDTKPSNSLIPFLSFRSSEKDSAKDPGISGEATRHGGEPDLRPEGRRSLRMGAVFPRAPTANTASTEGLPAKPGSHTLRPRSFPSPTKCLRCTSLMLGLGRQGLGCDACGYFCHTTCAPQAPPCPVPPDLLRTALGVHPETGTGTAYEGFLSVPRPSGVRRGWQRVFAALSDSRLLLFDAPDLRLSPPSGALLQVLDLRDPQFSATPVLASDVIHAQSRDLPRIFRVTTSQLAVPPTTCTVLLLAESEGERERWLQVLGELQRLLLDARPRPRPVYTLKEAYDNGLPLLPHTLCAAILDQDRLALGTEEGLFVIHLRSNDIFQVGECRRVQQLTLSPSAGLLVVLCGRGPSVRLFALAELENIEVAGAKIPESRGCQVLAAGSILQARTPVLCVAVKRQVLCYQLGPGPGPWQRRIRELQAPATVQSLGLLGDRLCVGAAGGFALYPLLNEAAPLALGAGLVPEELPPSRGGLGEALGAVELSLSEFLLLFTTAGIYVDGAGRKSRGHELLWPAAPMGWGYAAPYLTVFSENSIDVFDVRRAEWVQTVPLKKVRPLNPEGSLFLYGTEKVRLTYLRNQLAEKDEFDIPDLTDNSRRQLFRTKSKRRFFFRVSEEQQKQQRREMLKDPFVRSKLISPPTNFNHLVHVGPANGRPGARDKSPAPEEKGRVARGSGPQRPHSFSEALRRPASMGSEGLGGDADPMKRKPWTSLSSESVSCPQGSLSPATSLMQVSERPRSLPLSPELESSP
# Sequence of UniProt Q8IU85 (whole entry, looked up): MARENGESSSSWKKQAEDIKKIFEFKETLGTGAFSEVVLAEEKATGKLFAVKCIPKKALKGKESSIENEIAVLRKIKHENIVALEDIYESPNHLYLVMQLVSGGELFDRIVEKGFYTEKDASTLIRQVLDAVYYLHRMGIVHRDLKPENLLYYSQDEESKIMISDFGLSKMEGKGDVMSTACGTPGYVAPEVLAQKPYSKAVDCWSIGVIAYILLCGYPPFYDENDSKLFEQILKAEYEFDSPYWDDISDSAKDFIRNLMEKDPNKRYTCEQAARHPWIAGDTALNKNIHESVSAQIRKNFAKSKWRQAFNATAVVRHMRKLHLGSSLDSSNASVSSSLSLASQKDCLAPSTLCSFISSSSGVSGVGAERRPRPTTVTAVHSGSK
# Sequence of UniProt Q96NX5 (whole entry, looked up): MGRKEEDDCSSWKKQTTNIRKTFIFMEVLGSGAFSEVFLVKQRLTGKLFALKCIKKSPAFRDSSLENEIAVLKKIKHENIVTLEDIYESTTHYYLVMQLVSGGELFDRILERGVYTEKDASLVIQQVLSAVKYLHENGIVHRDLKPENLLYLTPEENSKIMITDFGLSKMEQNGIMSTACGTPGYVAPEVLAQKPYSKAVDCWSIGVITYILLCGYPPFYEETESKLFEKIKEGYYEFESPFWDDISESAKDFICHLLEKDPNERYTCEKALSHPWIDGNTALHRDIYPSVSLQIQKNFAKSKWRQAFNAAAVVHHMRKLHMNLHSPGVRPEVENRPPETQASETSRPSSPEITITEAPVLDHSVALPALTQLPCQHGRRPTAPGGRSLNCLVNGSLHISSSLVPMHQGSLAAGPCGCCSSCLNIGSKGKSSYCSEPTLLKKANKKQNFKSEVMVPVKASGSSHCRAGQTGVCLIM
# Sequence of UniProt O96017 (whole entry, looked up): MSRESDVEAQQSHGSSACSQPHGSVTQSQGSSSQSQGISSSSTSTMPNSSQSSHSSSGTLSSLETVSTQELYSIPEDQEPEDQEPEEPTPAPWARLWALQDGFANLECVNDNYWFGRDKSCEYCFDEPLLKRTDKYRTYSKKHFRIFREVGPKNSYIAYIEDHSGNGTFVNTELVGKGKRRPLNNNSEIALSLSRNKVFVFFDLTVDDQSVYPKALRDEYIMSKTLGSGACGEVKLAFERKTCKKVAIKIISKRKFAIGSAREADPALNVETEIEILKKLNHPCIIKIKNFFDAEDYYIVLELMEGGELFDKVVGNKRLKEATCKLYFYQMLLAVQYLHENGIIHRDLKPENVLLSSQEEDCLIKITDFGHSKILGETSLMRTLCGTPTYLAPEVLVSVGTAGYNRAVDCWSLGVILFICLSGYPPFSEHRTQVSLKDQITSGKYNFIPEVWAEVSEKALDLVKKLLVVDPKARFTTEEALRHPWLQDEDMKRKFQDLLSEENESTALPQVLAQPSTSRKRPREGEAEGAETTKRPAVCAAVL

# Block 1
# Compound: CC(C)C(=O)N1CCN(c2nc(OC[C@@H]3CCCN3C)nc3c2CCN(c2cccc4cccc(Cl)c24)C3)C[C@@H]1CC#N
# Observed: binding
# Mode: competitor
# Technique: NanoBRET
# Cells: HEK293
target,setting,normalized BRET
"GTPase KRas (KRAS, Homo sapiens, UniProt P01116, G12D)",3.7 µM,116% and 106% and 95%
"GTPase KRas (KRAS, Homo sapiens, UniProt P01116, Q61R)",1.24 µM,107% and 94.7% and 100%
"GTPase KRas (KRAS, Homo sapiens, UniProt P01116, Q61L)",412 nM,96.8% and 102%
"GTPase KRas (KRAS, Homo sapiens, UniProt P01116, G13D)",15.2 nM,97.1% and 96.4% and 113%
"GTPase KRas (KRAS, Homo sapiens, UniProt P01116, Q61H)",45.7 nM,95.9% and 94.1% and 101%

# Block 2
# Structure (SMILES): C=CC(=O)N1CCC([C@@H]2CCNc3c(C(N)=O)c(-c4ccc(Oc5ccccc5)cc4)nn32)CC1
# Concentration: 1 µM
target,assay,inhibition
"EGFR (Homo sapiens, UniProt P00533, L858R)",cell-free assay,43%
"PRKAA1 (Homo sapiens, UniProt Q13131)",cell-free assay,0%
"PIK3CA (Homo sapiens, UniProt P42336, E545K)","enzyme activity, inhibitor",35%
"CAMK1D (Homo sapiens, UniProt Q8IU85)","enzyme activity, inhibitor",10%
"FLT3 (Homo sapiens, UniProt P36888, D835H)","enzyme activity, inhibitor",18%
"Tyrosine-protein kinase ABL1, non-phosphorylated (ABL1, Homo sapiens, UniProt P00519, Q252H)","enzyme activity, inhibitor",44%

# Block 3
# Compound: C[C@H]1CC[C@H](n2c3cnccc3c3cnc(Nc4ccc5c(n4)CCN(C(=O)CO)C5)nc32)CC1
# Observed: binding
# Concentration: 1 µM
target,assay,remaining binding [%]
"CDKL2 (Homo sapiens, UniProt Q92772)",competition with immobilised ligand,46
"IKBKB (Homo sapiens, UniProt O14920)",,80
"STK25 (Homo sapiens, UniProt O00506)",competition with immobilised ligand,53
"CAMK1G (Homo sapiens, UniProt Q96NX5)",,52
"NEK11 (Homo sapiens, UniProt Q8NG66)",competition with immobilised ligand,100
"CSNK1E (Homo sapiens, UniProt P49674)",competition with immobilised ligand,26
"ANKK1 (Homo sapiens, UniProt Q8NFD2)",,100

# Block 4
# Species: human
# Matrix: microsomes or S9
# Concentration: 2 µM
# Time: 0.5 h
Structure (SMILES),remaining compound [%]
NCCN(C1CCOCC1)S(=O)(=O)c1ccc(F)cc1F,90.2
Cc1nn(-c2ccccc2)c(N2CCCCC2)c1C=C(c1nc2ccccc2s1)c1nc2ccccc2s1,15.4
NC(=O)CCN(Cc1ccccc1)C(=O)c1ccccc1OCc1ccccc1,1.82
CC(C)Cn1c(NCCc2ccccc2)nc2c1c(O)nc(=O)n2C,48.3
c1ccc(-c2nc(-c3ccc(-c4noc(-c5ccco5)n4)cc3)cs2)cc1,18.1

# Block 5
# Structure (SMILES): COc1cc(-c2cn(C3CCc4c(F)cccc4N(CC(F)(F)F)C3=O)nn2)ccc1-n1cnc(C)c1 (centres unmarked)
# Concentration: 1 µM
target,assay,remaining binding
"NTRK3 (Homo sapiens, UniProt Q16288)","cell-free assay, competition with immobilised ligand",95%
"SLK (Homo sapiens, UniProt Q9H2G2)","cell-free assay, competition with immobilised ligand",100%
"PIP4K2C (Homo sapiens, UniProt Q8TBX8)","cell-free assay, competition with immobilised ligand",100%
"PRKCQ (Homo sapiens, UniProt Q04759)","cell-free assay, competition with immobilised ligand",89%
"PRKAA1 (Homo sapiens, UniProt Q13131)","cell-free assay, competition with immobilised ligand",100%
"CDC42BPG (Homo sapiens, UniProt Q6DT37)",competition binding,100%
"TGFBR1 (Homo sapiens, UniProt P36897)","cell-free assay, competition with immobilised ligand",100%
"EIF2AK1 (Homo sapiens, UniProt Q9BQI3)","cell-free assay, competition with immobilised ligand",100%
"TRPM6 (Homo sapiens, UniProt Q9BX84)","cell-free assay, competition with immobilised ligand",100%
"CHEK2 (Homo sapiens, UniProt O96017)","cell-free assay, competition with immobilised ligand",100%
"DYRK2 (Homo sapiens, UniProt Q92630)","cell-free assay, competition with immobilised ligand",100%
"ZAP70 (Homo sapiens, UniProt P43403)","cell-free assay, competition with immobilised ligand",100%
"TESK1 (Homo sapiens, UniProt Q15569)","cell-free assay, competition with immobilised ligand",100%
"PIK3CA (Homo sapiens, UniProt P42336, I800L)","cell-free assay, competition with immobilised ligand",66%
"CDKL3 (Homo sapiens, UniProt Q8IVW4)","cell-free assay, competition with immobilised ligand",100%
"PLK4 (Homo sapiens, UniProt O00444)","cell-free assay, competition with immobilised ligand",100%
"CDKL2 (Homo sapiens, UniProt Q92772)","cell-free assay, competition with immobilised ligand",67%
"RIOK1 (Homo sapiens, UniProt Q9BRS2)","cell-free assay, competition with immobilised ligand",96%

# Some of these lines once more (block 3):
target,assay,remaining binding [%]
"CDKL2 (Homo sapiens, UniProt Q92772)",competition with immobilised ligand,46
"IKBKB (Homo sapiens, UniProt O14920)",,80
"STK25 (Homo sapiens, UniProt O00506)",competition with immobilised ligand,53
"CAMK1G (Homo sapiens, UniProt Q96NX5)",,52
"NEK11 (Homo sapiens, UniProt Q8NG66)",competition with immobilised ligand,100
